Assay results of several laboratories.
Lines come from different studies, so protocols differ. Several values in a cell are separate wells, animals, samples, runs or records. Numbers after ± are the reported error. No end group written: not given here.
B1: disulfide; chain GLPVCGETCVGGTCNTPGCTCSWPVCTRN (disulfide (positions not given here))
B2: bicyclic; chain AATCHCRRSCYSTEYSYGTCTVMGINHRFCCL (also: bicyclic or more (positions not given here))

Molecule = Polymyxin B; test = untargeted LC-MS metabolomics, item: L-valine; system = Sprague-Dawley rat, right cerebral cortex; setting = intracerebroventricular, 0.75 mg/kg, 1 h; how to read = reference: NaCl control; endpoint = log2 fold change; result = -6.7
Molecule = regorafenib N-β-glucuronide; system = mouse plasma; setting = 25 ng/mL, 6 months, -80 °C; endpoint = long-term stability accuracy; result = 99.5%
Molecule = B1; test = oxidative folding, RP-HPLC; system = 0.1 M NH4HCO3 with isopropanol; setting = 0.1 mg/mL, pH 8.5, room temperature, added: 0.4 mM GSSG, 2 mM GSH; endpoint = conversion to native product; result = 70% and 69%
Molecule = coproporphyrin III; system = healthy human volunteers, urine; setting = dose not given, 0-24 h, median, cumulative urine, added: ezetimibe plus rifampin; endpoint = urine concentration; result = 50.9 nM
Molecule = KTKEGVVHGVATVA; test = far-UV circular dichroism, item: Turns; system = peptide, PBS; setting = 10 µM, pH 7.4, 25 °C; endpoint = secondary structure content; result = 24.3%
Molecule = Teicoplanin; system = QC solution; setting = 7 days, 2–6 °C, high QC level; endpoint = recovery; result = 97.8%
Molecule = ESLSLSLSLSLSLEGKKDGDGDFAIDAPE; test = AFM; system = peptide, dried on mica from water; setting = 0.1 wt%; endpoint = nanofibre width; result = 10.2 ± 1.4 nm
Molecule = GSGAGQITKV; tested on = human MAGI1-2/6 PDZ construct (MBP fusion); test = automated holdup; system = peptide, crude extract; setting = concentration not given, corrected by standard peak, unit not given; how to read = reference: biotin control resin, higher = stronger binding; endpoint = binding intensity; result = 0.189
Molecule = [177Lu]Lu-DOTA-TATE; test = radio-HPLC; system = labelling formulation with quenchers; setting = 24 h, 50 MBq/nmol; endpoint = radiochemical purity; result = 93.4 ± 2.1%
Molecule = B2; test = sedimentation velocity AUC; system = 10 mM Tris-maleate; setting = 100 µM, pH 6.4, 20 °C; endpoint = sedimentation coefficient S20,w; result = 0.79 S
Molecule = coproporphyrin I; system = human, plasma; setting = concentration not given, baseline day; endpoint = lowest mean plasma concentration; result = 0.636 ± 0.032 nM
Molecule = FNA / CGLSGLGVA-NH2 ([18F]FNA-labelled, C-amide); test = ex vivo gamma counting; system = peptide, healthy mouse, heart; setting = 60 min post injection; endpoint = tissue uptake; result = 0.26 %ID/g
Molecule = MTVCNASQRQAHAQATAVSL; tested on = H1975 lung adenocarcinoma; test = phage binding output/input; system = peptide; how to read = reference: control phage; endpoint = selectivity ratio; result = 3.4 ± 1.3
Molecule = Rilpivirine docusate; system = Labrasol ALF; setting = mean of three; endpoint = kinetic solubility; result = > 500 mg/mL
Molecule = caspofungin; system = adult ICU patients, mITT, serum; setting = dose not given, day 4; endpoint = albumin; result = 25.9 g/L
Molecule = GSGAGKETRV; tested on = human MAGI1-2/6 PDZ construct (MBP fusion); test = automated holdup; system = peptide, crude extract; setting = concentration not given, uncorrected, unit not given; how to read = reference: biotin control resin, higher = stronger binding; endpoint = binding intensity; result = 0.422
Molecule = CTOP; test = RP-HPLC; system = HALO Peptide ES-C18 column; setting = 25 µM, formic acid/methanol, 10 min gradient; endpoint = retention time; result = 8.04 min

A few entries again:
Molecule = KTKEGVVHGVATVA; test = far-UV circular dichroism, item: Turns; system = peptide, PBS; setting = 10 µM, pH 7.4, 25 °C; endpoint = secondary structure content; result = 24.3%
Molecule = Teicoplanin; system = QC solution; setting = 7 days, 2–6 °C, high QC level; endpoint = recovery; result = 97.8%
